# Experimental data collected from several papers.
# Parts stem from different laboratories: compare values within a part only.

# Set 1
# Target: Protein max, full length (MAX, Homo sapiens, UniProt P61244-2, residues 1-151)
# Technique: protein-binding microarray
# Molecule type: double-stranded DNA, one strand shown
# Medium: in vitro
# Tested at: not given
# Setting: k-mer, scored over probes, only values ≥0.25
# Direction: higher = stronger binding
Oligonucleotide,E-score
CGTGGTGC,0.398
CACACTGC,0.259
ATACCACG,0.37
GCCATGCC,0.385
CATGCGTA,0.427
ATCACGCG,0.454
CACGCTAA,0.333
ATGCCGCG,0.256
ATGCGGAC,0.305
ACCCCGTG,0.421
CACGTGAA,0.485
GAGCATGA,0.342
ACATGGAG,0.308
GTGGCCAC,0.392
AAGGCACG,0.337
ACTAAGCA,0.282
ATGCTGTC,0.307
CATGACAG,0.272
CATGACGC,0.285
CCCGTGGC,0.297
CGCGTGAA,0.384
CGTGTTAA,0.322
CGTGTCTA,0.366

# Set 2
# Target: Histone acetyltransferase KAT6A, winged helix 2, GST fusion (KAT6A, Homo sapiens, UniProt Q92794, residues 85-181)
# Technique: protein binding microarray
# Molecule type: double-stranded DNA, one strand shown
# Medium: in vitro
# Tested at: not given
# Setting: 8-mer, flanks averaged, mean of 2 arrays, mostly near background
# Baseline: not given
# Direction: higher = stronger binding
# Target sequence (chain): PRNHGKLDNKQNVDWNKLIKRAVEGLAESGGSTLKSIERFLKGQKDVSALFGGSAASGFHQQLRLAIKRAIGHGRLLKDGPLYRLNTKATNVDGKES
Oligonucleotide,E-score
CAAGCTGA,0.175
AGAACATC,0.0786
AACTGACT,-0.153
GTCTGAGA,-0.0566
ACCGGCCT,0.118
ATCTCTCG,0.009
ACGAATCC,0.0693
AATCGGAG,0.0956
CCGCAGCG,0.203
ACCCGCCT,0.0491
GCGTCACC,0.0291
CCGTGGCC,0.109
AAAACATA,-0.0414
CTACAGGA,-0.139
AACGGCTG,-0.0212
ACCCTCGC,-0.0437

# Set 3
# Target: RNA binding protein fox-1 homolog 2, RRM domain, GST-SBP tag (RBFOX2, Homo sapiens, UniProt O43251-10, residues 100-194)
# Technique: RNA Bind-n-Seq
# Molecule type: RNA
# Medium: in vitro
# Tested at: 365 nM
# Setting: natural RNA segment, single round, ends assumed
# Baseline: no-protein control
# Direction: higher = stronger binding
# All sequences stand within: GGGAGUUCUACAGUCCGACGAUC … UGGAAUUCUCGGGUGCCAA
# Target sequence (chain): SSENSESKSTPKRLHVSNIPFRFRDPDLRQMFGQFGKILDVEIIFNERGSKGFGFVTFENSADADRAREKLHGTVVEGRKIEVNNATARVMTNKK
Oligonucleotide,RBNS enrichment (R)
ACCACUUUCCCACACUGUGAACUAAUGACAAGUGACUUAUUUGCUCAUAAGUAAAUGUCUUCAUGUUGAUGUGUCCGUGAAAGUUGUGAUCUGUUGUAAUAUCAGUUACA,0.325
GAUUUUGACUGAGUGAGACUUCUAGCAUGAAAGUCCCACUUUGAUUAUUGCUUAUUUGAAAACAGUAUUCCCAACUUUUGUAAAGUUGUGUAUGUUUUUGCUUCCCAUGU,23.3
GUUUUAGCUGUGCAUGUCAUAUCCACAAAGACUUUUAGCAGGUGAACUGUUCCAAGACUGACACAAGGAUGUUUCAAACUUGCCUCUGUCUGUAGAAAAUGUUAAAAAUA,2.83
CAGGCUGACAAAAUGAUUCACACGAAUGUGACAACUCGGGCUCAGUUCACUCUGCUUCCCAACAGUGUAAAUGCAUAGCAGUGUUUACCUGCAUGAGAACUAUGCACUAA,0.724
CACCUCCUUGCCUUUCAGUAAAUGGCCACGAUGUGACUAUUUGUUGAGGUUUCCAGCCUCUUCCAAGACCUUGCCAGGCUGAGUGGGGCCUGAGAGCUUGCAGGCACUUA,0.377
ACUAAAGAUUGAGUGAGGUCUCCCUGACUGAGGACUUCACCCCUUGAUUAAAGCAACUUGUGCUUCACUGCUGUCUGUGUGGCUCUGAGAGGGACUGGCAGAGGUGGACU,3.19
CACUGUCUCCAAUAGAAAGUGAAAAGAGAAGUGUGUGUAUAGCUCAGUGGUAGAGUGCUUGCCUGAUAUACAGGAAGCCUCAGUUUAAUCCUAAAUCCCAUUUCAAAAAU,0.248
CAUAUCCCAGCCACCUGUGUACAGGGGCUCACUUUGUGUGCUCCUUGUUGCCUGAGAAGAAACCUUGGGGUGCCAGGGUGGGGGCAGAAGCAUGGGCUGGGUUCCGGUUC,0.454

# Set 4
# Target: Prothrombin, mature alpha-thrombin (F2, Homo sapiens, UniProt P00734)
# Technique: aptamer microarray, sandwich
# Molecule type: DNA with 2'F-ANA
# Medium: in vitro
# Tested at: 200 nM
# Setting: whole 15-mer aptamer, many near background
# Added: Cy3 exosite-II aptamer, 400 nM
# Direction: higher = stronger binding
# Oligonucleotide: GGTTGGTGTGGTTGG
Modification,mean fluorescence intensity [a.u.]
2'F-ANA at 1 3 4 6 8 9 11 13 14,103
2'F-ANA at 3 4 6 7 8 9 10 11 13 15,195
2'F-ANA at 2 3 6 7 12,1060
2'F-ANA at 3 6 7 8 10 13,568
2'F-ANA at 1 3 4 6 7 8 9 13 14,81.8
2'F-ANA at 1 2 7 8 9 10 15,58.8
2'F-ANA at 2 3 4 5 6 8 9 11 12 13 14,58.6
2'F-ANA at 1 4 9 10 13 14,52
2'F-ANA at 3 8 11 14 15,668
2'F-ANA at 2 3 4 6 7 8 10 12 13 15,252
2'F-ANA at 4 5 8 10 11 12 14 15,154
2'F-ANA at 1 5 6 8 9 11 12 13,78.6
2'F-ANA at 1 5 8 12 13 15,86
2'F-ANA at 1 3 4 9 10 11 13 14,48.9
2'F-ANA at 2 7 11 12 13 14 15,169
2'F-ANA at 7 10 11 15,178
2'F-ANA at 4 5 7 8 10 11 14,45.7
2'F-ANA at 1 4 6 8 11 15,105

# Set 5
# Target: Fragile X messenger ribonucleoprotein 1, C-terminal low-complexity region (Fmr1, Mus musculus, UniProt P35922)
# Technique: RNA Bind-n-Seq
# Molecule type: RNA
# Medium: in vitro
# Tested at: 200 nM
# Setting: whole 134-nt RNA, ends assumed
# Added: 150 mM LiCl
# Baseline: input library
# Direction: higher = stronger binding
# All molecules: 7-deaza-guanosine replaces G
# All sequences stand within: GGGAGUUCUACAGUCCGACGAUC … UGGAAUUCUCGGGUGUCAAGG
Oligonucleotide,log2 enrichment
AGUCCUGUGCUACACAUCGUAUGUACCGAAUCGGAAAAGGGGAAAAGGGAAAAGGGGAAAGUAUUAUGUUACGCCGUUCGGAUCUGCACU,-0.572
CCUCAAGUCCUGUGCUACACAUCGUAUGUACCGAAUCGGGGAGGGAGGGAGGAAAGUAUUAUGUUACGCCGUUCGGAUCUGCACUUCCAG,-1
UGGACCUGGUGGCAUGCGGGGAGGAAGAGGUGGCCUCAUGGAUCGUGGUGGUCCCGGUGGAAUGUUCAGAGGUGGCCGUGGUGGAGACAG,0.104
AGUCCUGUGCUACACAUCGUAUGUACCGAAUCGGGGUUUGGGGUGGGGUUUUUGGGGAAAGUAUUAUGUUACGCCGUUCGGAUCUGCACU,-0.639
UGGGAGGUGGAUUUUGUUUAUUUUUUUAGCUCAUUUCCAGGGGUGGGAAUUUUUUUUUACUAUGUGUCAUGAAUAAAGUUGUUUUUGAAA,-0.232
CCUGUGCUACACAUCGUAUGUACCGAAUCGGGCCCCCCCGGCCCCCCCGGGCCCCCCCGGAAAGUAUUAUGUUACGCCGUUCGGAUCUGC,0.778
UCCUCAAGUCCUGUGCUACACAUCGUAUGUACCGAAUCGGCCGGCCGGCCGGAAAGUAUUAUGUUACGCCGUUCGGAUCUGCACUUCCAG,1.57
UGGCCCUGGUGGCACGCGGGGAGGAAGAGGUGGCCUCAUGGAUCGUGGUGGUCCCGGUGGAAUGUUCAGAGGUGGCCGUGGUGGAGACAG,0.191
